Experimental data of several laboratories.
Compare with care: the assays were run in different laboratories.
Target: Cytochrome P450 1A2 (CYP1A2, Homo sapiens, UniProt P05177)
Chain of UniProt P05177 (whole entry, looked up): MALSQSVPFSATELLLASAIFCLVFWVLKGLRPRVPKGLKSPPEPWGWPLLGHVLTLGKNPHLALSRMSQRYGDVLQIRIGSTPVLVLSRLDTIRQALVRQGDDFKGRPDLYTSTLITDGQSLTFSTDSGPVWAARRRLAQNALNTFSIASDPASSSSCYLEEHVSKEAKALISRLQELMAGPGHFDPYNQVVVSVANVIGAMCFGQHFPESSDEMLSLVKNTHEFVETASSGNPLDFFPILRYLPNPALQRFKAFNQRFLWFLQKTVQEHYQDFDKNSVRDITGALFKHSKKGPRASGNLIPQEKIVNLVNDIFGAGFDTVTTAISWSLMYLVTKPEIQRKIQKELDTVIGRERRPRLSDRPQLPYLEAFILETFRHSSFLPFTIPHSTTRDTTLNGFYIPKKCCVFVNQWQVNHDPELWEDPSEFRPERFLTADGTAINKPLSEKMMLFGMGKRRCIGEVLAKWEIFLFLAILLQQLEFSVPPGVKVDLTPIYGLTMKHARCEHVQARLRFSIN

N=C(N)SCc1ccccc1CSC(=N)N — IC50 (enzyme activity, inhibitor): > 10 µM
C=C(NC(=O)c1csc(-c2nc3c(cc2O)-c2nc(cs2)C(=O)NC(C(C)O)C(=O)NC(=C(C)OC)c2nc(cs2)C(=O)NC2c4nc(cs4)C(=O)NC(COC(=O)c4c5c6c(cccc6n4O)COC(=O)C(OC4CC(C)(O)C(N(C)C)C(C)O4)C2OC5)c2nc-3cs2)n1)C(N)=O (stereo not shown) — IC50 (enzyme activity, inhibitor; pH 7.4): > 50 µM
O=C(NC1CCC(F)(F)CC1)C(c1cncnc1)N(C(=O)C(F)Cl)c1ccc(OC(F)(F)F)cc1 (stereo not shown) — IC50 (enzyme activity, inhibitor; 10 (unit not given)): > 50 µM
Cc1[nH]nc2c1N=C(c1ccccc1Cl)c1cnc(N3CCOCC3)cc1N2 — IC50 (enzyme activity, inhibitor; human, liver microsomes): > 10 µM
NC(=O)c1ccc(C(=O)NOCc2ccc(Sc3cccc(Cl)c3)c(C(F)(F)F)c2)cc1 — IC50 (pooled human liver microsomes; 20 min): > 30 µM
C[C@H]1CN(C(=O)c2cn(-c3ccnc(N)n3)c3cc(C#CC4(O)CCCCC4)ccc23)CCN1 — IC50 (enzyme activity, inhibitor; human, liver microsomes; 10 min): > 50 µM
COc1ccc(-c2coc3cc(O)cc(O)c3c2=O)cc1 — IC50 (enzyme activity, inhibitor; human, liver microsomes; 15 min): 72.7 µM
OCC1OC(n2cnc3c(NCc4ccc(Br)s4)ncnc32)C(O)C1O (stereo not shown) — IC50 (enzyme activity, inhibitor, fluorescence; pH 7.4, with: 3-cyano-7-ethoxycoumarin): > 10 µM
CC(C)(C)n1ncc2c(=O)n(Cc3cccc(F)c3)c(NCc3ccc(F)cn3)nc21 — IC50 (enzyme activity, inhibitor; human liver): > 15 µM
COc1ccc2c(c1OC)O[C@H]1c3ccc(O)cc3OC[C@@H]21 — IC50 (enzyme activity, inhibitor; human, liver microsomes; 15 min): 149 µM

A few entries again:
NC(=O)c1ccc(C(=O)NOCc2ccc(Sc3cccc(Cl)c3)c(C(F)(F)F)c2)cc1 — IC50 (pooled human liver microsomes; 20 min): > 30 µM
